Measurements collected from several papers.
Values joined by “and” are separate records of one study, mostly repeats; a detail may differ. pIC50: −log10 of the molar value.
Cell line: DU-145

Compound = COc1ccc(C([O-])=CC(=O)c2ccc(C(C)(C)C)cc2)cc1.Cc1ccc(C(C)C)cc1.[Cl-].[Ru+2]; read-out = cytotoxicity; notes = dark; measurement = pIC50; value = < 5.00
Compound = CC(C)(C)C(=O)OCOP(=O)(OCOC(=O)C(C)(C)C)C1CCCN(O)C1=O (centres unmarked); measurement = log LC50; value = > -4 log M
Compound = Cc1cc(Oc2nc(N3CC[C@@H](c4ccncc4)C3)ncc2F)[nH]n1; read-out = cell proliferation; medium = prostate cancer; measurement = pIC50; value = 4.33
Compound = C1N2CN3CN1CP(C2)C3.COc1ccc(C(O)=CC(=O)c2ccc(C(C)(C)C)cc2)cc1.Cc1ccc(C(C)C)cc1.[Ru+2]; read-out = cytotoxicity; notes = dark; measurement = pIC50; value = 6.31
Compound = CC1CCC2C(C)C(OC(=O)CCC(=O)N3CCN(CC(=O)Nc4ccc([N+](=O)[O-])c(C(F)(F)F)c4)CC3)OC3OC4(C)CCC1C32OO4 (centres unmarked); read-out = cell growth or viability; method = CCK-8; measurement = pIC50; value = < 4.30
Compound = CC(=O)[C@@H]1CCCN1C(=O)[C@@H]1CCCN1C(=O)[C@H](Cc1ccccc1)NC(=O)[C@@H](NC(=O)[C@@H](NC(=O)[C@@H](NC(=O)[C@@H]1CCCN1C(=O)[C@H](C)NC(=O)OC(C)(C)C)C(C)C)C(C)C)C(C)C; read-out = cell growth or viability; method = SRB; measurement = pIC50; value = 5.99 and 5.90 and 6.00
Compound = CC(C)C12OC1C1OC13C1(C)CCC4=C(COC4=O)C1CC1OC13C2OC(=O)CCC(=O)OC1OC(CO)C(O)C(O)C1O (centres unmarked); read-out = cell growth or viability; method = XTT; time = 47 h; measurement = pIC50; value = 6.40
Compound = C#CCCCC[C@H](C)C[C@@H](C)C(=O)N(C)[C@@H](C)C(=O)N1CCC[C@H]1C(=O)N(C)[C@H](C(=O)N(C)[C@H](C(=O)OC)C(C)C)C(C)C; read-out = cell growth or viability; method = SRB; measurement = pIC50; value = 5.89 and 5.96 and 5.83
Compound = CC1CCC2C(C)C(OC(=O)CCC(=O)OC3C(C)OC(n4cc(F)c(=O)[nH]c4=O)C3OC(=O)CCC(=O)OC3OC4OC5(C)CCC6C(C)CCC(C3C)C46OO5)OC3OC4(C)CCC1C32OO4 (centres unmarked); read-out = cell growth or viability; method = CCK-8; measurement = pIC50; value = < 4.30
Compound = C#CCCCC[C@H](C)C[C@@H](C)C(=O)N(C)[C@H](C(=O)N(C)[C@@H](Cc1ccccc1)C(=O)N1CCC[C@H]1C(=O)N1CCC[C@H]1C(C)=O)C(C)C; read-out = cell growth or viability; method = SRB; measurement = pIC50; value = 6.01 and 5.85 and 6.27
Compound = C[C@H]1[C@H](OC(=O)CCC(=O)OCCC2CCN(CC(=O)Nc3ccc([N+](=O)[O-])c(C(F)(F)F)c3)CC2)O[C@@H]2O[C@@]3(C)CC[C@H]4[C@H](C)CC[C@@H]1[C@@]24OO3; read-out = cell growth or viability; method = CCK-8; measurement = pIC50; value = < 4.30
